Assay results collected from several papers.
Compare with care: the assays were run in different laboratories. ± gives the spread as reported.

SMILES	assay	system	conditions	how to read	quantity	result
COc1cnc2cccc(N3CCc4c(cc(Cn5ccnc5)cc4-c4cn(C)nc4C(F)(F)F)C3=O)c2c1		CD-1 mouse	intraperitoneal, 150 mg/kg once daily, day 3, dose-escalation tolerability	baseline: day 1	body weight change	6.1%
CC[C@H](C)[C@H](NC(=O)[C@H](CCCCN)NC(=O)CNC(=O)[C@H](CC(C)C)NC(=O)[C@H](Cc1ccccc1)NC(=O)[C@H](CCCCN)NC(=O)[C@H](CO)NC(=O)[C@H](Cc1ccccc1)NC(=O)[C@H](Cc1c[nH]c2ccccc12)NC(=O)[C@H](CCC(N)=O)NC(=O)[C@@H](NC(=O)[C@H](Cc1ccccc1)NC(=O)CCCCCNC(=O)CN1CCN(CC(=O)O)CCN(CC(=O)O)CCN(CC(=O)O)CC1)C(C)C)C(=O)N[C@@H](CCC(=O)O)C(=O)N1CCC[C@H]1C(=O)N[C@@H](CC(=O)O)C(=O)N[C@H](C(=O)N[C@@H](CO)C(=O)N[C@@H](CCC(N)=O)C(=O)N[C@H](C(=O)N[C@@H](CCC(N)=O)C(=O)N[C@@H](CC(=O)O)C(=O)N1CCC[C@H]1C(=O)N[C@@H](CC(N)=O)C(=O)N[C@@H](CC(=O)O)C(=O)N[C@@H](CCC(N)=O)C(=O)N[C@@H](Cc1ccc(O)cc1)C(=O)N[C@@H](CCC(=O)O)C(=O)N1CCC[C@H]1C(=O)N[C@@H](Cc1ccccc1)C(=O)O)C(C)C)C(C)C [copper-64 labelled]	dynamic PET	mouse, CT26 tumour, checkpoint inhibitor-treated, tumour	intravenous, 100 µCi/mouse, 1170 s		SUVmean	3.82 SUV
CSCC[C@H](NC(=O)CNC(=O)[C@H](CCCCN)NC(=O)[C@H](CC(C)C)NC(=O)[C@@H]1CCCN1C(=O)[C@H](CO)NC(=O)[C@H](Cc1c[nH]cn1)NC(=O)[C@H](Cc1c[nH]c2ccccc12)NC(=O)[C@H](CCCNC(=N)N)NC(=O)[C@H](CC(C)C)NC(=O)[C@H](CCCNC(=N)N)NC(=O)[C@H](Cc1c[nH]c2ccccc12)NC(=O)[C@H](CS)NC(=O)CCCCCNC(=O)CN1CCN(CC(=O)O)CCN(CC(=O)O)CCN(CC(=O)O)CC1)C(=O)O [copper-64 labelled]	ex vivo biodistribution	C57BL/6J mice bearing B16-F10 tumours, lung	intravenous, 1.85 MBq, 2 h		tissue uptake	7.29 %ID/g
O=C1NC2(CC2)COc2ncc(F)cc2[C@H]2COCCN2c2ccn3ncc1c3n2		Sprague-Dawley rat, female, serum	oral, 20 mg/kg/day, 4 weeks daily, end of recovery period		alkaline phosphatase activity	46.3 ± 15.5 U/L
CC1(C)C(=O)N(c2ccc(C#N)c(C(F)(F)F)c2)C(=S)N1c1ccc(C(N)=O)c(F)c1		human, male, plasma	oral, 160 mg, single dose, after high-fat meal		Tmax	233 ± 72.9 h
CCCCCCCCCCCCCCCC(=O)N[C@@H](CCC(=O)NCCOCCOCCC(=O)NCCOCCOCCC(=O)NCCCC[C@H](NC(=O)[C@H](CC(=O)O)NC(=O)[C@H](CC(C)C)NC(=O)[C@H](Cc1ccc(O)cc1)NC(=O)[C@H](CCCCN)NC(=O)[C@H](CO)NC(=O)[C@H](Cc1ccc(O)cc1)NC(=O)[C@H](CC(=O)O)NC(=O)[C@H](CO)NC(=O)[C@@H](NC(=O)[C@H](Cc1ccccc1)NC(=O)[C@@H](NC(=O)CNC(=O)[C@H](CCC(N)=O)NC(=O)[C@@H](CO)NC(=O)[C@@H](N)Cc1c[nH]cn1)[C@@H](C)O)[C@@H](C)O)C(=O)N[C@@H](CCCNC(=N)N)C(=O)N[C@@H](CCCNC(=N)N)C(=O)N[C@@H](C)C(=O)N[C@@H](CCC(N)=O)C(=O)N[C@@H](CC(=O)O)C(=O)N[C@@H](Cc1ccccc1)C(=O)N[C@H](C(=O)N[C@@H](CCC(N)=O)C(=O)N[C@@H](Cc1c[nH]c2ccccc12)C(=O)N[C@@H](CC(C)C)C(=O)N[C@@H](CC(C)C)C(=O)N[C@@H](CC(N)=O)C(=O)N[C@H](C(=O)NCC(=O)NCC(=O)N1CCC[C@H]1C(=O)N[C@@H](CO)C(=O)N[C@@H](CO)C(=O)NCC(=O)N[C@@H](C)C(=O)N1CCC[C@H]1C(=O)N1CCC[C@H]1C(=O)N1CCC[C@H]1C(=O)N[C@@H](CO)C(N)=O)[C@@H](C)O)C(C)C)C(=O)O		rhesus monkey, plasma	subcutaneous, 5 µg/kg, single dose		Cmax	1.96 ng/mL
CC[C@H](C)[C@H](NC(=O)[C@H](C)NC(=O)[C@H](CCCCN)NC(=O)[C@H](CC(C)C)NC(=O)[C@@H](N)Cc1ccccc1)C(=O)N[C@@H](CCCCN)C(=O)N[C@@H](CCCCN)C(=O)N[C@@H](Cc1ccccc1)C(=O)NCC(=O)N[C@@H](CCCCN)C(=O)N[C@@H](CCC(=O)O)C(=O)N[C@@H](Cc1ccccc1)C(=O)N[C@@H](CCCCN)C(=O)N[C@@H](CCCCN)C(=O)N[C@H](C(=O)NCC(=O)N[C@@H](C)C(=O)N[C@@H](CCCCN)C(=O)N[C@@H](CC(C)C)C(=O)N[C@@H](CCCCN)C(=O)O)[C@@H](C)CC		human red blood cells	8 mg/L, 1 h, mean of replicates		hemolysis	0.245%
N#[11C]c1ccc(-c2csc(NN=C3CCCC3)n2)cc1		C57BL/6 mouse, male	intravenous, 3 MBq, 5 min		uptake in large intestine with contents	2.1 ± 0.71 %ID/g
Cc1ccccc1-c1ccc(-c2nc(-c3ccc(CN(C)CCCC(=O)O)c([18F])c3)no2)cc1C(F)(F)F		rat, heart	5 min		tracer uptake	1.34 %ID/g
CC[C@H](C)[C@H](NC(=O)[C@H](CCCCN)NC(=O)CNC(=O)[C@@H](NC(=O)[C@H](Cc1c[nH]cn1)NC(=O)[C@H](Cc1c[nH]cn1)NC(=O)[C@@H](NC(=O)CNC(=O)[C@H](Cc1c[nH]cn1)NC(=O)[C@H](Cc1ccccc1)NC(=O)[C@H](CC(C)C)NC(=O)[C@H](CC(C)C)NC(=O)[C@H](CCCNC(=N)N)NC(=O)[C@H](Cc1ccccc1)NC(=O)[C@@H](N)Cc1ccccc1)C(C)C)C(C)C)C(=O)N[C@@H](CCCCN)C(=O)N1CCC[C@H]1C(=O)N[C@@H](CCCNC(=N)N)C(=O)N[C@@H](C)C(N)=O		zebrafish embryos 4 hpf, E3 medium	24 h		chronic toxic concentration	5 µM
COc1cccc2c1C(=O)c1c(O)c3c(c(O)c1C2=O)CC(O)(C(=O)CO)CC3OC1CC(NC(=O)OC2C=CCCC(C)(C(=O)NCC(=O)O)CC2)C(O)C(C)O1 (stereo not drawn)		male Sprague Dawley rat, plasma	intravenous, 21.5 mg/kg/day doxorubicin equivalents, day 1		AUC(0.5-24 h)	1420 ± 176 ng·h/mL
CC(=O)NCCCC[C@@H]1NC(=O)[C@H](Cc2c[nH]c3c(C)cccc23)NC(=O)[C@H]([C@@H](C)O)NC(=O)[C@H](CC(N)=O)NC(=O)[C@@H](NC(C)=O)C(C)(C)SSC(C)(C)[C@@H](C(=O)N[C@@H](Cc2ccc(OCCN)cc2)C(=O)N[C@@H](Cc2ccc3ccccc3c2)C(=O)NC2(C(=O)N[C@@H](CCC(=O)O)C(=O)N[C@@H](CC(N)=O)C(=O)N[C@@H](Cc3cccnc3)C(=O)N(C)CC(N)=O)CCOCC2)NC1=O		human	oral, 100 mg multiple dose, day 10		CL/F	9740 ± 5000 L/h

Repeated from above:
SMILES	assay	system	conditions	how to read	quantity	result
CC[C@H](C)[C@H](NC(=O)[C@H](C)NC(=O)[C@H](CCCCN)NC(=O)[C@H](CC(C)C)NC(=O)[C@@H](N)Cc1ccccc1)C(=O)N[C@@H](CCCCN)C(=O)N[C@@H](CCCCN)C(=O)N[C@@H](Cc1ccccc1)C(=O)NCC(=O)N[C@@H](CCCCN)C(=O)N[C@@H](CCC(=O)O)C(=O)N[C@@H](Cc1ccccc1)C(=O)N[C@@H](CCCCN)C(=O)N[C@@H](CCCCN)C(=O)N[C@H](C(=O)NCC(=O)N[C@@H](C)C(=O)N[C@@H](CCCCN)C(=O)N[C@@H](CC(C)C)C(=O)N[C@@H](CCCCN)C(=O)O)[C@@H](C)CC		human red blood cells	8 mg/L, 1 h, mean of replicates		hemolysis	0.245%
N#[11C]c1ccc(-c2csc(NN=C3CCCC3)n2)cc1		C57BL/6 mouse, male	intravenous, 3 MBq, 5 min		uptake in large intestine with contents	2.1 ± 0.71 %ID/g
